Published values gathered from unrelated publications.
Lines come from different studies, so protocols differ. “And” joins repeats or separate records; there may be more than shown.
Target: Aurora kinase C (AURKC, Homo sapiens, UniProt Q9UQB9)

| SMILES | test | conditions | scale | endpoint | value |
| --- | --- | --- | --- | --- | --- |
| C=CC(=O)N1Cc2nc(-c3cc(-c4cc(Cl)cnc4Cl)c(F)cc3F)n(-c3ccncn3)c2C1 | cell-free assay, inhibitor | 1 µM |  | inhibition | 14.6% |
| C=CC(=O)Nc1cccc(-c2cnc3[nH]cc(C(=O)NC(C)(C)C)c3n2)c1 | kinase activity | 0.1 µM |  | inhibition | 15% and 10% |
| NC(=O)[C@@H](O)C[C@H]1CCc2sc3ncnc(O[C@H]4CC[C@H](N5CCOCC5)CC4)c3c21 | enzyme activity, inhibitor | 10 µM |  | inhibition | 6% |
| Nc1ncc2c(n1)-c1c([nH]c3ccc(C4=CCOCC4)cc13)CCC2 | binding, competition with immobilised ligand | 1 µM |  | remaining binding | 100% |
| COc1cc(Nc2nccc(-c3cnn4nc(OC)ccc34)n2)cc(C(F)(F)F)c1 | binding, competition with immobilised ligand | 1 µM |  | remaining binding | 100% |
| COc1ccc(NC(=O)Nc2ccc3c(c2)C(=O)N(C(C)CO)CC(C)C(CN(C)Cc2ccc4c(c2)OCO4)O3)cc1 (stereo not drawn) | binding, competition with immobilised ligand | 10 µM |  | remaining binding | 3% |
| C[C@]1(O)CCCN(c2nc(Nc3ccc(S(=O)(=O)N[C@H]4CC[C@H](CN5CCN(c6ccc(C7CCC(=O)NC7=O)cc6F)CC5)CC4)cc3)ncc2C(F)(F)F)C1 (stereo partly drawn) | binding, competition with immobilised ligand | 1 µM |  | remaining binding | 1.1% |
| CC(C)=CC1OC(C)(C)C2C=C3C(=O)C(Cl)=CC(O)C3C3C(O)C4OC4C(=O)C132 (stereo not drawn) | cell-free assay, competition with immobilised ligand | 10 µM |  | remaining binding | 86% |
| CN1CCN(Cc2ccc(-c3ccc(CO[C@H]4CCC[C@@H]4NC(=O)c4cc(-c5cnn(C)c5)cnc4N)cc3)cc2)CC1 | enzyme activity, inhibitor | 0.1 µM |  | inhibition | 5% |
| Cc1cccc(O[C@H]2CCC[C@@H](C(C)CNCc3ccncc3)C2)c1 (relative stereo) | cell-free assay | 1 µM |  | inhibition | 1% |
| CNC1C[S+]2CC[S+]3CC[S+](C1)[Ru-4]321([N]=C=S)[n]2c3ccc(OC)cc3c3c4c(c5cc(F)c[n+]1c5c32)C(=O)NC4=O (stereo not drawn) | KinomeScan | 0.1 µM | relative to: untreated | remaining binding | 93% |
| CN1CC[C@@H](COc2cnc(C#N)cc2-c2ccn3nc(NC(=O)C4CC4)cc3c2)C1 | enzyme activity, inhibitor | 1 µM |  | inhibition | 11% |
| COc1ccc(C(=O)/C=C/c2ccccc2-c2c[nH]c3ccc(C#N)cc23)c(O)c1 | enzyme activity, inhibitor | 20 µM |  | inhibition | 4% |
| COc1c(Cl)cccc1Nc1c(-c2ccncc2C#C[C@@]2(C)CCCN2C(=O)/C=C/CN(C)C)[nH]c2c1C(=O)NCC2 | binding, competition with immobilised ligand | 3 µM |  | remaining binding | 94% |
| CCN1CCN(Cc2ccc(C(=O)Nc3ccc(C)c(NCc4cnc5[nH]ccc5c4OC)c3)cc2C(F)(F)F)CC1 | binding, competition with immobilised ligand | 1 µM |  | remaining binding | 71% |

A few entries again:
| SMILES | test | conditions | scale | endpoint | value |
| --- | --- | --- | --- | --- | --- |
| COc1ccc(NC(=O)Nc2ccc3c(c2)C(=O)N(C(C)CO)CC(C)C(CN(C)Cc2ccc4c(c2)OCO4)O3)cc1 (stereo not drawn) | binding, competition with immobilised ligand | 10 µM |  | remaining binding | 3% |
